Literature values that unrelated publications cite.
Each numbered part shows a few of the values that one paper quotes. ± gives the spread as reported.

Study 1
Organism: Cryptosporidium parvum
Technique: high-throughput screen
Tested at: concentration not given
Under activity, `CCCCC(=O)O[C@]1(C(=O)CO)CC[C@H]2[C@@H]3CCC4=CC(=O)CC[C@]4(C)[C@H]3[C@@H](O)C[C@@]21C` is recorded as “inactive”.
`C[C@]12C=CC(=O)C=C1CC[C@@H]1[C@@H]2C(=O)C[C@@]2(C)[C@H]1CC[C@]2(O)C(=O)CO`: activity “inactive”.
`C[C@H]1C[C@H]2[C@@H]3CCC4=CC(=O)C=C[C@]4(C)[C@@]3(Cl)[C@@H](O)C[C@]2(C)[C@@]1(O)C(=O)CO`: activity “inactive”.
`CCN1CCC[C@H]1CNC(=O)c1cc(S(N)(=O)=O)ccc1OC`: activity “inactive”.
`COC(=O)C1=C(C)NC(C)=C(C(=O)OC)C1c1ccccc1[N+](=O)[O-]`: activity “inactive”.
`CC(C)(C(=O)O)c1ccc(C(O)CCCN2CCC(C(O)(c3ccccc3)c3ccccc3)CC2)cc1` (stereo not shown) — result for activity: “inactive”.
`CN(Cc1cnc2nc(N)nc(N)c2n1)c1ccc(C(=O)N[C@@H](CCC(=O)O)C(=O)O)cc1.O` — result for activity: “inactive”.
Under activity, `COc1ccc([C@@H]2Sc3ccccc3N(CCN(C)C)C(=O)[C@@H]2OC(C)=O)cc1` is recorded as “inactive”.
Under activity, `NC1CCN(c2nc3c(cc2F)c(=O)c(C(=O)O)cn3-c2ccc(F)cc2F)C1` (stereo not shown) is recorded as “inactive”.
`Cc1cn([C@H]2C[C@H](N=[N+]=[N-])[C@@H](CO)O2)c(=O)[nH]c1=O`: activity “inactive”.
`O=C1N[C@H](C(=O)O)CS1`: activity “inactive”.
`COc1cc(C)nc(-n2nc(C)cc2OC)n1` — result for activity: “inactive”.
`COc1cccc2c1C(=O)c1c(O)c3c(c(O)c1C2=O)C[C@@](O)(C(=O)CO)C[C@@H]3O[C@H]1C[C@H](N)[C@@H](O)[C@H](C)O1` — result for activity: “inactive”.
Under activity, `CC(N/C(=N\C#N)Nc1ccncc1)C(C)(C)C.O` (stereo not shown) is recorded as “inactive”.
`CO[C@H]1O[C@@H]2O[C@@]3(C)CC[C@H]4[C@H](C)CC[C@@H]([C@H]1C)[C@@]24OO3` — result for activity: “inactive”.
For `O=c1c(O[C@@H]2O[C@H](CO)[C@@H](O)[C@H](O)[C@H]2O)c(-c2ccc(O)c(O)c2)oc2cc(O)cc(O)c12`, activity read “inactive”.
For `Cc1c(O)cccc1C(=O)N[C@@H](CSc1ccccc1)[C@H](O)CN1C[C@H]2CCCC[C@H]2C[C@H]1C(=O)NC(C)(C)C`, activity read “inactive”.
`CCC(=O)O[C@]1(C(=O)SCF)[C@H](C)C[C@H]2[C@@H]3C[C@H](F)C4=CC(=O)C=C[C@]4(C)[C@@]3(F)[C@@H](O)C[C@@]21C`: activity “inactive”.
Under activity, `C[C@](N)(Cc1ccc(O)c(O)c1)C(=O)O` is recorded as “inactive”.
For `COc1cc(CNC(=O)CCCC/C=C\C(C)C)ccc1O`, activity read “inactive”.
`CCCN(CCC)S(=O)(=O)c1ccc(C(=O)O)cc1` — result for activity: “inactive”.
`C[C@]12CC[C@@H]3c4ccc(OS(=O)(=O)O)cc4CC[C@H]3[C@@H]1CCC2=O` — result for activity: “inactive”.
Under activity, `Cn1nnc2c(C(N)=O)ncn2c1=O` is recorded as “inactive”.

Further values, each from its own experiment
`Cn1cnc2c(F)c(Nc3ccc(Br)cc3Cl)c(C(=O)NOCCO)cc21` has a Cmax of 1440 ng/mL (human; 75 mg, given alone).
The IC50 of `C=C(C)[C@@H]1CC[C@]2(C)CC[C@]3(C)[C@H](CC[C@@H]4[C@@]5(C)CC[C@H](O)C(C)(C)[C@@H]5CC[C@]43C)[C@@H]12` is reported as > 100000 nM (CYP3A2 (rat); inhibitor; rat liver microsomes).
For `CN1CCN(C(=O)C(C)(C)c2ccc(C(=O)Nc3cn4cc(-c5ccncc5)ccc4n3)cc2)CC1`, the IC50 was 1.98 nM (CLK4 (human); cellular activity).
The IC50 of `O=C(O[C@@H]1COC(=O)c2cc(O)c(O)c(O)c2-c2c(cc(O)c(O)c2O)C(=O)O[C@H]1[C@@H]1OC(=O)c2cc(O)c(O)c(O)c2-c2c(O)c(O)c(O)c3c2C(=O)O[C@H]1[C@@H]3O)c1cc(O)c(O)c(O)c1` is reported as > 37.5 µg/mL (normal lymphocytes; cytotoxicity).
With `O=C(O)O` the Km was 4.1 mM (human neutrophils; anion exchange, substrate; added: Cl-).
`CC(C)C[C@H](NC(=O)[C@H](Cc1ccccc1)NC(=O)c1cnccn1)B(O)O` — result for “peripheral neuropathy incidence”: 30 to 60% (human patients).
The AUC(0-inf) of `COc1cc(N2CCC(N3CCN(C)CC3)CC2)ccc1Nc1ncc(Cl)c(Nc2ccccc2P(C)(C)=O)n1` is reported as 13500 ng·h/mL (healthy subjects; dose not given, CYP3A inhibition, single dose, added: itraconazole 200 mg twice daily).
`CC1=NN(c2ccc(C)c(C)c2)C(=O)/C1=N\Nc1cccc(-c2cccc(C(=O)O)c2)c1O` gave an IC50 of 2700 nM (BCRP; inhibitor).
`O=CO` has a Km of 13 mM (anion exchanger, human; substrate; neutrophils).
With `COCC(=O)N1CCC[C@H](C(=O)NCc2nc(-c3ccccc3)cs2)C1` the EC50 was 89 nM (Plasmodium falciparum; parasite growth; 3D7; asexual blood stage).
For `CO[C@H]1C[C@@H]2CC[C@@H](C)[C@@](O)(O2)C(=O)C(=O)N2CCCC[C@H]2C(=O)O[C@H]([C@H](C)C[C@@H]2CC[C@@H](O)[C@H](OC)C2)CC(=O)[C@H](C)/C=C(\C)[C@@H](O)[C@@H](OC)C(=O)[C@H](C)C[C@H](C)/C=C/C=C/C=C/1C`, “cooperativity factor alpha” read 2170 (FKBP12 and mTOR FRB domain; ternary complex binding).
`O=C([O-])CC[C@H](NC(=O)N[C@@H](CCCCNC(=O)CCCCCCC(=O)NCCCC[C@@H](NC(=O)[C@@H](Cc1ccccc1)NC(=O)[C@@H](Cc1ccc(O)c(I)c1)NC(=O)CC[C@H](C(=O)[O-])N1CCN(CC(=O)[O-])CCN(CC(=O)[O-])CCN(CC(=O)[O-])CC1)C(=O)[O-])C(=O)[O-])C(=O)[O-].[177Lu+3].[H+].[H+].[H+].[H+].[H+]`: “kidney absorbed dose” 0.73 Gy/GBq (human patients).
`COc1cc(/C=C/C(=O)CC(=O)/C=C/c2ccc(O)c(OC)c2)ccc1O` has a Ki of 700 ± 410 nM (BCRP; inhibitor).
`O=c1[nH]c(=O)n([C@H]2C[C@H](O)[C@@H](CO)O2)cc1CCC[18F]` gave a logP of -0.57 (1-octanol/0.1 M NaH2PO4; pH 7.47).
The IC50 of `Cc1cc(C(=O)N[C@@H](CC(=O)NC(C)(C)C)C(=O)NCCNC(=O)c2cccc(-n3cccn3)c2)no1` is reported as < 100 nM (Plasmodium falciparum 20S proteasome; enzyme activity, inhibitor).
`O=C(Nc1nc2ccccc2[nH]1)c1ccccc1` gave a response of 91% (SUMO1 specific protease 6; 12.5 µM, PubChem AID 488915).
For `CCOc1ccc(S(=O)(=O)Nc2ccc(Cl)cc2C#Cc2cnc(C(=O)O)cc2OC)c2ncccc12`, the IC50 was 7100 nM (human AVPR1A).
The elimination half-life of `Cn1nnc2c(C(N)=O)ncn2c1=O` is reported as ~1.8 h (oral).
For `CCC(F)(F)c1cc(N2CCC(S(C)(=O)=O)CC2)nc2sc(C(N)=O)c(N)c12`, the IC50 was 49 nM (IKBKB; biochemical activity).
`C/C(=N\c1ccc(O)cc1)c1cc2ccccc2n1C` — result for cell migration: “decreased” (PC-3; concentration not given, added: EGF).
`CC(=O)Nc1ncc(CN2CCC[C@H](Cc3cc(C)nc(C)c3)C2)s1` gave an IC50 of 3.9 nM (OGA (human); cellular activity).
The logP of `O=c1[nH]c(=O)n([C@@H]2O[C@H](CO)[C@@H](O)[C@@H]2F)cc1CCCCC[18F]` is reported as 0.74 (1-octanol/0.1 M NaH2PO4; pH 7.47).
For `CC(=O)N[C@@H](CS)C(=O)O`, the pKa was 9.52 (thiol group).
